Measurements pooled from the literature.
Each line is one published result; not all experiments were run side by side. Several values in a cell are separate wells, animals, samples, runs or records. ± marks the error that the study gave.
Ubiquitin carboxyl-terminal hydrolase 39 ZnF-UBD domain: Ubiquitin carboxyl-terminal hydrolase 39, ZnF-UBD domain (Homo sapiens, UniProt Q53GS9)
UniProt Q53GS9, sequence (whole entry, looked up): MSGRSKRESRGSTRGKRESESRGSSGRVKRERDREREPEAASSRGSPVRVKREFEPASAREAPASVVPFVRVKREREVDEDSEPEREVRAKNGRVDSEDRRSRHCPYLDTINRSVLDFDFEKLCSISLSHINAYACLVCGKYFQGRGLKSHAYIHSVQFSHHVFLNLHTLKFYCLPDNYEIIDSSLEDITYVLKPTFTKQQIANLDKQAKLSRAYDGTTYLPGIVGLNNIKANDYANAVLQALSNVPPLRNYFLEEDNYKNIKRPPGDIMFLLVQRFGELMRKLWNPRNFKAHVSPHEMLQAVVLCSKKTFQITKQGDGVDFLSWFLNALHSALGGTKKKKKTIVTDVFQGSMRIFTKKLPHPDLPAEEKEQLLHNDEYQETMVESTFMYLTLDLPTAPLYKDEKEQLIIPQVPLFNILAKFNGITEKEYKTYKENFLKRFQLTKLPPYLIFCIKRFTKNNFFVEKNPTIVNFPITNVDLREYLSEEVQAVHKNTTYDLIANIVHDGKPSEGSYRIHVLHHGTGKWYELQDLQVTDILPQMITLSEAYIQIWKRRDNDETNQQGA

SMILES	target or system	test	test system	conditions	scale	measurement	value
O=C(O)[C@@H](O)[C@H](O)[C@H](O)CO		binding, equilibrium dialysis LC-MS		5 µM, thermostabilized A2AR-BRIL construct	relative to: no-protein control, direction not given	z-scored log2 fold change	0.0978
C/C=C/C[C@@H](C)C(=O)[C@H]1C(=O)N[C@@H](C(C)C)C(=O)N(C)CC(=O)N(C)[C@@H](CC(C)C)C(=O)N[C@@H](C(C)C)C(=O)N(C)[C@@H](CC(C)C)C(=O)N[C@@H](C)C(=O)N[C@H](C)C(=O)N(C)[C@@H](CC(C)C)C(=O)N(C)[C@@H](CC(C)C)C(=O)N(C)[C@@H](C(C)C)C(=O)N1C			Sprague Dawley rat, plasma	intravenous infusion, 2.67 mg/h/kg, 4 h, 4.5 h constant infusion		total plasma concentration	12200 ng/mL
CCCCC1=NC2(CCCC2)C(=O)N1Cc1ccc(-c2ccccc2S(=O)(=O)Nc2noc(C)c2C)c(COCC)c1			healthy adult volunteers, plasma	oral, 800 mg, 14 days repeated dosing, fasted, crushed tablet		Tmax	3.25 h
CC[C@H](C)[C@H](NC(=O)[C@H](Cc1ccccc1)NC(=O)[C@H](CCC(=O)O)NC(=O)[C@H](CCCCNC(=O)COCCOCCNC(=O)COCCOCCNC(=O)CC[C@H](NC(=O)CCCCCCCCCCCCCCCCC(=O)O)C(=O)O)NC(=O)[C@H](C)NC(=O)[C@H](C)NC(=O)[C@H](CCC(N)=O)NC(=O)CNC(=O)[C@H](CCC(=O)O)NC(=O)[C@H](CC(C)C)NC(=O)[C@H](Cc1ccc(O)cc1)NC(=O)[C@H](CO)NC(=O)[C@H](CO)NC(=O)[C@@H](NC(=O)[C@H](CC(=O)O)NC(=O)[C@H](CO)NC(=O)[C@@H](NC(=O)[C@H](Cc1ccccc1)NC(=O)[C@@H](NC(=O)CNC(=O)[C@H](CCC(=O)O)NC(=O)C(C)(C)NC(=O)[C@@H](N)Cc1cnc[nH]1)[C@@H](C)O)[C@@H](C)O)C(C)C)C(=O)N[C@@H](C)C(=O)N[C@@H](Cc1c[nH]c2ccccc12)C(=O)N[C@@H](CC(C)C)C(=O)N[C@H](C(=O)N[C@@H](CCCNC(=N)N)C(=O)NCC(=O)N[C@@H](CCCNC(=N)N)C(=O)NCC(=O)O)C(C)C		12-lead Holter ECG	healthy humans	subcutaneous, 1.5 mg once weekly, 24 h, steady state	relative to: placebo	QTcF change from baseline	0 ms
CCn1cc(C(=O)N2CCOCC2)c(=O)c2cc(NC3Cc4ccccc4C3)cnc21			human, fasted	oral tablet, 300 mg single dose, arithmetic mean		AUC(0-last)	11000 ng·h/mL
Cl.[2H]C([2H])([2H])CC(=O)c1cnc(NC(=O)C2CC2)cc1Nc1cccc(-c2ncn(C([2H])([2H])[2H])n2)c1OC			human, fed, multiple dose	oral, 60 mg once daily, tablet, day 1, median		Tmax	3.12 h
C[C@H]1CNCCCN1S(=O)(=O)c1cccc2cncc(F)c12			healthy adult men	ocular, 1 drop per eye twice daily, 8 days, adverse event		subjects with eye irritation	0%
CC1(C)CN(CCCCC(=O)N[C@@H](CCC(=O)O)C(=O)N[C@@H](CCC(=O)O)C(=O)N[C@H](CCCCNC(=O)CCCCCCC(=O)NCCCC[C@H](NC(=O)N[C@@H](CCC(=O)O)C(=O)O)C(=O)O)C(=O)O)CC[N]2CC(C)(C)[S][Tc]2(=[O])[S]1 (stereo partly drawn) [technetium-99m labelled]			human plasma	6 h, 37 °C		intact radioligand	96%
Cc1ccc([C@H]2N[C@@H](C3CCCCC3)CO[C@@H]2C)cc1		shake-flask, 1-octanol/buffer		pH 7.4		logD	> 4.7
O=C1CC[C@H](C(=O)O)N1		binding, equilibrium dialysis LC-MS		5 µM, thermostabilized A2AR-BRIL construct	relative to: no-protein control, direction not given	z-scored log2 fold change	0.276
CCn1c(=O)c(-c2cc(NC(=O)Nc3ccccc3)c(F)cc2Br)cc2cnc(NC)cc21		refers to: nervous system disorders	human, mild hepatic impairment	oral, 50 mg single dose		participants with drug-related TEAE	0%
O=C(O)Cn1cnc2c(oc3ccccc32)c1=O	Ubiquitin carboxyl-terminal hydrolase 39 ZnF-UBD domain					Kd	> 1000 µM
CC(C)(C)c1ccc([C@H]2COC[C@@H](c3ccc(F)cc3)N2)cc1		shake-flask, 1-octanol/buffer		pH 7.4		logD	> 4.7
O=[N+]([O-])c1cc2c3ccccc3ccc2c2ccccc12		refers to: others mammary tumours	female Sprague-Dawley rats	intramammary, 12.3 µmol per rat, up to 32 weeks		tumours per rat	0.13 ± 0.29
O=S(=O)(NCc1ccccn1)c1cc(Cl)c(Cl)cc1Cl			octanol/buffer	pH 7.4		logD	3.02
COc1ncc(-c2nc3c(n2C(C)C)[C@H](c2ccc(Cl)cc2)N(c2cc(Cl)cn(C)c2=O)C3=O)c(OC)n1			human patients, plasma	oral, 100 mg, high-dose arm, cycle 2 day 1		median Tmax	2.5 h
C[C@@H](O)CCOC(=O)C[C@@H](C)O			human	oral drink, dose not given, 30 min post dose, mean		diastolic blood pressure	67 mmHg
O=C(O)CNC(=O)c1ccc(S(=O)(=O)N2CCC(n3c(=O)oc4ccccc43)CC2)cc1	Ubiquitin carboxyl-terminal hydrolase 39 ZnF-UBD domain					Kd	> 1000 µM
CCO[C@H]1CCN(Cc2c(OC)cc(C)c3[nH]ccc23)[C@H](c2ccc(C(=O)O)cc2)C1			human moderate hepatic impairment, plasma	oral, 200 mg single dose, mean		unbound AUC0–12	4650 ng·h/mL
CC(C)(C(=O)N1CCOc2c(C#N)cncc2C1)C(F)F		refers to: Nausea	human	oral, 40 mg, CSF pharmacokinetic cohort		subjects with adverse event	16.7%
CN(CCC#N)C1CCN(C(=O)Cn2cc(NC(=O)c3cnn4cccnc34)c(-c3cc(Cl)ccc3OC(F)F)n2)CC1			human, single ascending dose	0.15 mg, day 4	relative to: baseline	LDL cholesterol change	-12.9 mg/dL
c1cncc(-c2cccc(Nc3nccc(NC4CCCCC4)n3)c2)c1			MDCKII-WT cells	10 µM, pH 7.4	relative to: Papp B-A over A-B	efflux ratio	1.08
OCc1nc2ccc(NCc3ccc(C(F)(F)F)cc3)cc2[nH]1			Balb/c mice, male, heart	oral, 10 mg/kg, 48 h		tissue concentration	not detected
O=C(O)CCC(=O)O.[2H]C([2H])([2H])Oc1cc(C)c2[nH]ccc2c1CN1CC[C@@H](C2CC2)C[C@H]1c1ccc(C(=O)O)cc1		multiple ascending dose	healthy Chinese subjects	100 mg twice daily		subjects with elevated triglycerides TEAE	12.5%

SMILES	target or system	test	test system	conditions	scale	measurement	value
CCc1cc(C(=O)NC)c2nccc(N3CCc4c(cc(Cn5ccnc5)cc4-c4cn(C)nc4C(F)(F)F)C3=O)c2c1			Sprague Dawley rat	oral, 100 mg/kg twice daily, day 1, 7-day toxicology study		body weight	218 ± 4.9 g
CC1(C)OC[C@@H](c2ccc3ccccc3c2)N[C@@H]1c1cccc(F)c1		shake-flask, 1-octanol/buffer		pH 7.4		logD	> 4.7
Cc1c(-c2ccc(N3CCc4cccc(C(=O)Nc5nc6ccccc6s5)c4C3)nc2C(=O)O)cnn1CC12CC3(C)CC(C)(C1)CC(OCCNCC[C@H](O)CO)(C3)C2			anaesthetized male beagle dog	iv infusion, 0.3 mg/kg/min, 5 min		plasma concentration	730 ng/mL and 1300 ng/mL
Cc1cc(-c2nccc3c2ccn3CC(=O)Nc2ccc(-c3cnccn3)cn2)ccn1			human	5 mg once daily, multiple ascending dose		musculoskeletal disorders	0%
CCOc1ccc2ccc(=O)oc2c1			CD-1 mouse, male, hepatocytes	1 µM		hepatic clearance	> 75.9 mL/min/kg
Cc1nc(C)c(-c2ccnc(Nc3ccc(Cl)cc3)n2)s1			octanol/buffer	67 µM, pH 7.4		logD	5.1
CN(C)C/C=C/C(=O)Nc1cc2c(Nc3ccc(F)c(Cl)c3)ncnc2cc1O[C@H]1CCOC1			PBS	100 µM, 23 h, pH 7.45, 37 °C, with: cysteine 10 mM		cysteine adduct formation	98%
CCC(=O)N(CCC(c1ccc2c(c1)OCO2)c1ccccc1OC)Cc1ccccc1 (stereo not drawn)			female athymic nude mouse, blood	i.p., 60 mg/kg twice daily, 14 days, group mean		GLU	194 mg/dL
CCOc1c([C@H](C)n2nc(C)c3c(N)ncnc32)cc(Cl)c(F)c1[C@@H]1CNC(=O)C1		ECG	previously treated B-cell malignancy patients	oral, 15 mg once daily, baseline QTcF ≤450 ms		observations ΔQTcF >30 ≤60 ms	0%
O=C(COc1ccc(Cl)cc1)NC12CC(c3nnc([C@H]4C[C@@H](OC(F)(F)F)C4)o3)(C1)C2		refers to: Myalgia	human	oral, 260 mg once daily, 14 days		adverse event incidence	14.3%
Cc1ccc([C@@H]2O[C@H](CO)[C@@H](O)[C@H](O)[C@H]2O)cc1Cc1ccc(-c2ccc(F)cc2)s1			Japanese type 2 diabetes patients	400 mg, day 3, 24 h urine collection	relative to: baseline	urinary sodium excretion change	16.2 mEq
C=CC(=O)N1CCC([C@@H]2CCNc3c(C(N)=O)c(-c4ccc(Oc5ccccc5)cc4)nn32)CC1			rat plasma	400 ng/mL, 21 days, -80 °C	relative to: nominal concentration	stability relative error	-0.8%
NC1(C(=O)N[C@@H](CCO)c2ccc(Cl)cc2)CCN(c2nc[nH]c3nccc2-3)CC1			metastatic CRPC patients	480 mg b.i.d., any grade, treatment-related, with: enzalutamide 160 mg daily		incidence of SIRS	20%
CCN1/C(=C/C(C)=O)Sc2ccc(F)cc21			cynomolgus monkey	oral, 10 mg/kg, 6 h post-dose		diastolic blood pressure	81 ± 5 mmHg
CC[C@@H]1CN(C(=O)NCC(F)(F)F)C[C@@H]1c1cnc2cnc3[nH]ccc3n12		population PK modelling	human	oral, immediate-release formulation, outliers re-estimated		absorption rate constant (Ka)	2.75 h⁻¹
CC(=O)Nc1cccc(-c2nnc(SCC(=O)Nc3ccc(C(C)=O)cc3)n2C)c1			octanol/buffer	pH 7.4		logD	1.84
N#Cc1ccc2c(c1)[C@H]1CCCN(C(=O)c3ccc4[nH]cnc4c3)[C@H]1C2			human	20 mg, day 15		maximum ACTH level	11.4 pmol/L
O=C(O)CCCOc1ccc([18F])cc1-c1cc(-c2ccccc2C(F)(F)F)n(-c2ccccc2)n1		gamma counting	male ddY mice, lung	intravenous, 2.1 MBq, 30 min		radioactivity uptake	0.38 ± 0.1 SUV
C[C@@H](NC(=O)N1C(=O)[C@H](Cc2ccnc(N)c2)[C@H]1C(=O)O)C1CCCCC1		UPLC-MS/MS	healthy adult Chinese volunteers, plasma	continuous intravenous infusion, 2.25 mg/kg/h, day 6 of 5-day infusion, mean		CL	4.3 mL/min/kg
O=C(Nc1nc2cccc(-c3ccc(CN4CCS(=O)(=O)CC4)cc3)n2n1)C1CC1		refers to: cystitis	human rheumatoid arthritis patients	oral, 200 mg once daily, 4 weeks, regardless of relatedness		treatment-emergent adverse events	0%
CO[C@@H]1[C@H](OC(=O)N2CC(CCN3CCOCC3)C2)CC[C@]2(CO2)[C@H]1[C@@]1(C)O[C@@H]1CC=C(C)C			humans	subcutaneous, 0.6 mg twice weekly for 4 weeks, day 28	relative to: baseline	diastolic blood pressure	-1.8 ± 5.6 mmHg
c1cc(-c2ccc3ncnc(Nc4ncco4)c3c2)nc(N2CCOCC2)n1			human liver microsomes			CLint	73 µL/min/mg
C=CC(=O)N(C)CCOc1c(N)ncnc1-c1cc(F)cc(NC(=O)c2ccc(C3CC3)cc2F)c1C			human	oral, 5 mg single dose		Cmax	5.86 ng/mL
c1ccc(CN2CCCN3CCN(Cc4ccccc4)CCCN(CC2)Cc2cccc(n2)C3)cc1			64Cu complex	48 h, 70 °C, with: DOTA excess		intact complex	91%

For quick reference, copied from above:
SMILES	target or system	test	test system	conditions	scale	measurement	value
C=CC(=O)N1CCC([C@@H]2CCNc3c(C(N)=O)c(-c4ccc(Oc5ccccc5)cc4)nn32)CC1			rat plasma	400 ng/mL, 21 days, -80 °C	relative to: nominal concentration	stability relative error	-0.8%
CCN1/C(=C/C(C)=O)Sc2ccc(F)cc21			cynomolgus monkey	oral, 10 mg/kg, 6 h post-dose		diastolic blood pressure	81 ± 5 mmHg
C=CC(=O)N(C)CCOc1c(N)ncnc1-c1cc(F)cc(NC(=O)c2ccc(C3CC3)cc2F)c1C			human	oral, 5 mg single dose		Cmax	5.86 ng/mL
CCOc1c([C@H](C)n2nc(C)c3c(N)ncnc32)cc(Cl)c(F)c1[C@@H]1CNC(=O)C1		ECG	previously treated B-cell malignancy patients	oral, 15 mg once daily, baseline QTcF ≤450 ms		observations ΔQTcF >30 ≤60 ms	0%
CC1(C)CN(CCCCC(=O)N[C@@H](CCC(=O)O)C(=O)N[C@@H](CCC(=O)O)C(=O)N[C@H](CCCCNC(=O)CCCCCCC(=O)NCCCC[C@H](NC(=O)N[C@@H](CCC(=O)O)C(=O)O)C(=O)O)C(=O)O)CC[N]2CC(C)(C)[S][Tc]2(=[O])[S]1 (stereo partly drawn) [technetium-99m labelled]			human plasma	6 h, 37 °C		intact radioligand	96%
CC(=O)Nc1cccc(-c2nnc(SCC(=O)Nc3ccc(C(C)=O)cc3)n2C)c1			octanol/buffer	pH 7.4		logD	1.84
CC(C)(C)c1ccc([C@H]2COC[C@@H](c3ccc(F)cc3)N2)cc1		shake-flask, 1-octanol/buffer		pH 7.4		logD	> 4.7
CCn1c(=O)c(-c2cc(NC(=O)Nc3ccccc3)c(F)cc2Br)cc2cnc(NC)cc21		refers to: nervous system disorders	human, mild hepatic impairment	oral, 50 mg single dose		participants with drug-related TEAE	0%
